Results from different studies.
Protocols differ between the studies behind these lines. ± gives the spread as reported.

CNS(=O)(=O)Nc1nccc(Cc2c(C)c3ccc(Oc4ncccc4F)cc3oc2=O)c1F — IC50 (A498; cell viability; 7 days): > 1000 nM
C[C@@H](c1cccc2ccccc12)N1C(=O)C2=Nc3ccccc3CN2C1=S — IC50 (CEM/ADR5000 (P-gp overexpressing, multidrug resistant); cell viability, resazurin; 72 h): 322 ± 93 nM
COC(=O)N1c2ccc3c(nc(Cc4ccccc4)n3[C@@H]3CCC[C@@H](C(=O)O)C3)c2CC[C@@H]1C — IC50 (ZR-75-1; cell growth or viability, ATP luminescence; 10 days): 2200 nM
O=C(NCc1cc(F)cc(F)c1)[C@@]1(O)CCN(c2ccc3[nH]ccc3c2)C1=O — IC50 (Anal PDX-derived tumour cells; colony formation, soft agar clonogenic; 8-10 days): 130 nM
C=CC(=O)NCCCCCCOCc1cn(CCCCCCNC(=O)C=C)nn1 — IC50 (L929; viability, alamarBlue; 3 days): > 50000 nM
NC(=O)c1ccc(-c2ccccc2Cl)c2c3c([nH]c12)CC[C@@H](N)C3 — IC50 (RBE; cell growth or viability): 1.47 nM
CC(C)=CC1OC(C)(C)C2C=C3C(=O)C(Cl)=CC(O)C3C3C(O)C4OC4C(=O)C132 (centres unmarked) — IC50 (SK-MEL-30; cell growth or viability, MTS): 1970 nM
C/C(=N\Nc1ncnc2sc3c(c12)CCCC3)c1cc(O)ccc1O — IC50 (U2932; cell growth or viability, CCK-8): 159 nM
NC1=C(Cl)C(=O)c2cccc([N+](=O)[O-])c2C1=O — IC50 (HuCC-A1; cell growth or viability, MTT): 14100 nM
C[C@H](c1ccccc1)N1C(=O)C2=Nc3cc([N+](=O)[O-])ccc3CN2C1=S — IC50 (CEM/ADR5000 (P-gp overexpressing, multidrug resistant); cell viability, resazurin; 72 h): 127 ± 19 nM
C=CS(=O)(=O)NCCCCCCCCCCOCc1cn(CCCCCCCCCCNS(=O)(=O)C=C)n[n+]1C — IC50 (L929; cell growth or viability; 72 h): 16400 nM
C=CC(=O)Nc1cc(Nc2nccc(-c3cn(C)c4ccccc34)n2)c(OC)cc1N(C)CCN(C)C — IC50 (Ba/F3 EGFR 19Del/T790M/C797S BBT-176-resistant BR1; cell growth; 72 h): > 1000 nM
C=CC(=O)NCCCCCCCCOCc1cn(CCCCCCCCNC(=O)C=C)n[n+]1C — IC50 (L929; viability, alamarBlue; 3 days): > 50000 nM
CC(C)c1ccc(N(C)c2ccc3c(c2)OCC[C@H]3CNc2cnccc2C(=O)O)cc1 — IC50 (RD; cell growth or viability, ATP luminescence; 7 days): 9.29 nM
O=C1C(=NN=c2[nH]ccs2)c2cc(Cl)ccc2N1CCn1ncc2c(=O)[nH]cnc21 — IC50 (A498; cell growth or viability, SRB; 72 h): 2.27 µg/mL
COc1cc(C(=O)N/N=C/c2cccc3ccccc23)cc(OC)c1OC — IC50 (NALM16; cell growth or viability, MTT; 48 h): 47.6 nM
CCOc1cncc(-c2ccc(NC(=O)C3(c4ccnc(NS(=O)(=O)C5CC5)n4)CCOCC3)nc2)n1 — IC50 (A-431; cell proliferation, CellTiter-Glo; 72 h, Vulval cancer): 113 nM

For quick reference, copied from above:
C[C@@H](c1cccc2ccccc12)N1C(=O)C2=Nc3ccccc3CN2C1=S — IC50 (CEM/ADR5000 (P-gp overexpressing, multidrug resistant); cell viability, resazurin; 72 h): 322 ± 93 nM
